Results gathered from unrelated publications.
Protocols differ between the studies behind these lines. Numbers after ± are the reported error.
CYP3A7: Cytochrome P450 3A7 (CYP3A7, Homo sapiens, UniProt P24462)
Chain of UniProt P24462 (whole entry, looked up): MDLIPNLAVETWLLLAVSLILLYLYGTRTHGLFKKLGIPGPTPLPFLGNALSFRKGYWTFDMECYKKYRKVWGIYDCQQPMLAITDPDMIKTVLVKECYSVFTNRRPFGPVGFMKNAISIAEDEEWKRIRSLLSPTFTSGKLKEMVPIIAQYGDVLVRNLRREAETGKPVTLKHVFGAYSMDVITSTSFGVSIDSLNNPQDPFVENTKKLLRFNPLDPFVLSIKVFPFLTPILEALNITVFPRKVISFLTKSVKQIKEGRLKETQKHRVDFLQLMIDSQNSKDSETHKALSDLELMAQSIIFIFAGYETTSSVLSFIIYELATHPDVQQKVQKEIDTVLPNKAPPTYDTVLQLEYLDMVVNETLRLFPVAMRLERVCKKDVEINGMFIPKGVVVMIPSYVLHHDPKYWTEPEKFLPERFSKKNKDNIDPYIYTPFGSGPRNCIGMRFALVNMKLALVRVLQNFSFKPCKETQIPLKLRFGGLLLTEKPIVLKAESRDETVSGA
CYP3A4: Cytochrome P450 3A4 (CYP3A4, Homo sapiens, UniProt P08684)
Chain of UniProt P08684 (whole entry, looked up): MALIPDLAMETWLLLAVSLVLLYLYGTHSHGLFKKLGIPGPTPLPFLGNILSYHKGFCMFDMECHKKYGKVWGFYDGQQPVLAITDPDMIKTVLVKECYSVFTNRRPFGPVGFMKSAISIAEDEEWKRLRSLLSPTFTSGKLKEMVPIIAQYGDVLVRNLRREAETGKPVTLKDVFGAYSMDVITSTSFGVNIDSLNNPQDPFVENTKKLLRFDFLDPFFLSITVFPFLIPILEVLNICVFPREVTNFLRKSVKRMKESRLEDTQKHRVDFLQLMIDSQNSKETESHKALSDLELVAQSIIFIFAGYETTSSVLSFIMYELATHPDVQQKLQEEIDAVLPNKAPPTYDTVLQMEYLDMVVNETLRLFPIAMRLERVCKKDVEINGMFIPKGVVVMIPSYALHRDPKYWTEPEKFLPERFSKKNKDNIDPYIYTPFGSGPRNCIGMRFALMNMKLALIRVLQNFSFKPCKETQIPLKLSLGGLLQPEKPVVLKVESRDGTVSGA
Trypsin: Trypsin (Sus scrofa, UniProt P00761)
Chain of UniProt P00761 (whole entry, looked up): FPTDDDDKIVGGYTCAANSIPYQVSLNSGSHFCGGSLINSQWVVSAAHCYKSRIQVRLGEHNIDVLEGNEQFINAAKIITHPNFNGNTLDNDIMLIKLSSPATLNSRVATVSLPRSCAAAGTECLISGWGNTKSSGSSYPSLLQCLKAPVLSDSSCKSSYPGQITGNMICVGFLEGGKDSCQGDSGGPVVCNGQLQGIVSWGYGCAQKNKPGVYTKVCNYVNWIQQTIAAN
Chain of UniProt Q12809 (whole entry, looked up): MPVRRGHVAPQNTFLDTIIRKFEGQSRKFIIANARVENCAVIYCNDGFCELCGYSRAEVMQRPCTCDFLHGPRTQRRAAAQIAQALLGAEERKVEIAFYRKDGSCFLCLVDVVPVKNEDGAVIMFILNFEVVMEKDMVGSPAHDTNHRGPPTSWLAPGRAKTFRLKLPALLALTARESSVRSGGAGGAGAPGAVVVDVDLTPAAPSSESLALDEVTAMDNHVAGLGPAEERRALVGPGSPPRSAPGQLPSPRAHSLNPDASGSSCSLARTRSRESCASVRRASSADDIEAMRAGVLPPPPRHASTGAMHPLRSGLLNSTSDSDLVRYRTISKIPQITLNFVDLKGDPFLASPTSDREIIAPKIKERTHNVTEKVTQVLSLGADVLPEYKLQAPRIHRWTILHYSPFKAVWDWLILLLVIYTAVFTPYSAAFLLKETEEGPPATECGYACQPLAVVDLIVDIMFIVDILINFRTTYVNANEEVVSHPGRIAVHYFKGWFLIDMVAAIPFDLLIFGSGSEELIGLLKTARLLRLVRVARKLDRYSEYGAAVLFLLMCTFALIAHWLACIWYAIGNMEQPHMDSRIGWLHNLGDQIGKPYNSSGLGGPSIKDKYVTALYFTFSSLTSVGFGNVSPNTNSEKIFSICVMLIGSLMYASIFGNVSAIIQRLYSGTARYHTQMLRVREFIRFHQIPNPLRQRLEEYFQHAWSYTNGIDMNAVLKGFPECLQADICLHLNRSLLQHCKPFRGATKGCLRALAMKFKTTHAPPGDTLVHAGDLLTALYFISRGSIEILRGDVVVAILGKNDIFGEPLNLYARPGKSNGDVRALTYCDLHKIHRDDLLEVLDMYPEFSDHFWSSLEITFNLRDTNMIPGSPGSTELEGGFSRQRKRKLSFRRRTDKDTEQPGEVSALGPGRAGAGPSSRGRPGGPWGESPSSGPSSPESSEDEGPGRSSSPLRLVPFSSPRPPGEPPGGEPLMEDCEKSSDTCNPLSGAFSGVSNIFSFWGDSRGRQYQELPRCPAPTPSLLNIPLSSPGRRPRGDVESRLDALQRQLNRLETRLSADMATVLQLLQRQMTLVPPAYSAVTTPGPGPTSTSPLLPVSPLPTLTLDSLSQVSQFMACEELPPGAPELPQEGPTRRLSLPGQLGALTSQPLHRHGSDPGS
Chain of UniProt P22310 (whole entry, looked up): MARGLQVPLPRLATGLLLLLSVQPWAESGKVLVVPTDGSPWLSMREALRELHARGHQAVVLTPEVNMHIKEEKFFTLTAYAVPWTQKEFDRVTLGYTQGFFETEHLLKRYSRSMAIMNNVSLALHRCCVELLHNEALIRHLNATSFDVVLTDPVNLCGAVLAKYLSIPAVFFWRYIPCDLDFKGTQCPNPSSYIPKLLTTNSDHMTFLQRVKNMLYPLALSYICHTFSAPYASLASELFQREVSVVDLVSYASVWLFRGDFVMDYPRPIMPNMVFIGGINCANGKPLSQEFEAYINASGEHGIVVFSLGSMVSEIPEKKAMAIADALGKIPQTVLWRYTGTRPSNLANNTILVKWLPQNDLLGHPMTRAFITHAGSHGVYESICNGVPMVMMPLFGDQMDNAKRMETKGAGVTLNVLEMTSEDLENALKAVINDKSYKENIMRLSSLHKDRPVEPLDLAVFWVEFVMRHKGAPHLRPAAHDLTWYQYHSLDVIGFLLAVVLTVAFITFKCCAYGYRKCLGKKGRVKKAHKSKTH
Chain of UniProt Q96JM7 (whole entry, looked up): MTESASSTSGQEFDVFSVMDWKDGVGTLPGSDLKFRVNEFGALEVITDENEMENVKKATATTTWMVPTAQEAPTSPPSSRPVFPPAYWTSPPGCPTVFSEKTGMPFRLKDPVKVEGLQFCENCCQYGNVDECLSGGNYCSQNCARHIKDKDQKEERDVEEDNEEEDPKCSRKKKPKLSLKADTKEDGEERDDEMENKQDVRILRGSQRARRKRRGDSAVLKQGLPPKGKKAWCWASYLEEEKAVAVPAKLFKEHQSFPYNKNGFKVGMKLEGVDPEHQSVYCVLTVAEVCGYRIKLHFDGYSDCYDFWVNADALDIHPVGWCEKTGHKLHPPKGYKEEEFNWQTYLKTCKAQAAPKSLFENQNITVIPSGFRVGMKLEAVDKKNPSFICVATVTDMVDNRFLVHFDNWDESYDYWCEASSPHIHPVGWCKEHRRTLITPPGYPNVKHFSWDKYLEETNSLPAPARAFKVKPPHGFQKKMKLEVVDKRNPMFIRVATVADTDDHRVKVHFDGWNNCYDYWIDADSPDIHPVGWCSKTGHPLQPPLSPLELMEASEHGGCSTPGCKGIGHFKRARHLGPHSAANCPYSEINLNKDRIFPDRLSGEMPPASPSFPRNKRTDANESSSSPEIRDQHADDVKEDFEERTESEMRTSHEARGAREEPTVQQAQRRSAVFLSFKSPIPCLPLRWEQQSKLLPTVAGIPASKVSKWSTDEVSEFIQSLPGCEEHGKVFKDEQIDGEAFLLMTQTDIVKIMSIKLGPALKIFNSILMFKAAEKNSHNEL
Chain of UniProt P08183 (whole entry, looked up): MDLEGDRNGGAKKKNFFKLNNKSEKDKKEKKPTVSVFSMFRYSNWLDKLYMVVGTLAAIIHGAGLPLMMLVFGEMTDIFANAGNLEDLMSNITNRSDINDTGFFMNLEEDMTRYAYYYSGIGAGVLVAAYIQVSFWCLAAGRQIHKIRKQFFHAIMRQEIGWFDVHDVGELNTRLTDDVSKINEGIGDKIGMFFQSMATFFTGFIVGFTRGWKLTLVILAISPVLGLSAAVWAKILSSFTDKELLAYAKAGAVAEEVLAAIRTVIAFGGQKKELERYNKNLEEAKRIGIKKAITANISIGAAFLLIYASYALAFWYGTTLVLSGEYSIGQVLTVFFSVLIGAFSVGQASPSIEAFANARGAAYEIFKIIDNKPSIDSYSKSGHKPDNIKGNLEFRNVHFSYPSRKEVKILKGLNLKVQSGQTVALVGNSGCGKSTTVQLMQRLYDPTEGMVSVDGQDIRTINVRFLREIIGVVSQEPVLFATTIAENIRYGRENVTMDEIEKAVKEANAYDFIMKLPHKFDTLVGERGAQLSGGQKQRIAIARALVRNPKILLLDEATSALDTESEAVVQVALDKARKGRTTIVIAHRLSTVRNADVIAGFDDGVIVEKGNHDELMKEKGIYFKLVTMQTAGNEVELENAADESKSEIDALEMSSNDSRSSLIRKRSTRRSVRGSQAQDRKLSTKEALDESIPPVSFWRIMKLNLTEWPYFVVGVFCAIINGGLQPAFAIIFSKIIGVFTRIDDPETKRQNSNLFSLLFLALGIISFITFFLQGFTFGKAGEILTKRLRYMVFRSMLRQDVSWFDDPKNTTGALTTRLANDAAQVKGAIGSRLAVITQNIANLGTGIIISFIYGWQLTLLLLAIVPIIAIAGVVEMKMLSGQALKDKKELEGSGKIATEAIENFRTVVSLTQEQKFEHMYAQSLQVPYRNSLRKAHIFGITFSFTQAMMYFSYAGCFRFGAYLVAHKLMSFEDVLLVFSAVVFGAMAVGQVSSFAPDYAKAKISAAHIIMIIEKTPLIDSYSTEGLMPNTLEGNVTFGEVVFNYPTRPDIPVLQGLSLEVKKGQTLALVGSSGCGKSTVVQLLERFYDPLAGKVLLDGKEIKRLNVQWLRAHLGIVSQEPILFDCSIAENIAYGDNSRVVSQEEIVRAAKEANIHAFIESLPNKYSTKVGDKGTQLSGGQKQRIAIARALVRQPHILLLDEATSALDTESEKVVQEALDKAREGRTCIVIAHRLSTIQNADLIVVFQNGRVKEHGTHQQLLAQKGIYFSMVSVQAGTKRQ

| Compound | target or system | test | system | conditions | scale | quantity | result |
| --- | --- | --- | --- | --- | --- | --- | --- |
| CC(C)(C)[C@@H]1NC(=O)O[C@@H]2CCC[C@H]2OC/C=C/C(F)(F)c2nc3ccccc3nc2O[C@@H]2C[C@@H](C(=O)N[C@]3(C(=O)NS(=O)(=O)C4(C)CC4)C[C@H]3C(F)F)N(C2)C1=O | CYP3A7 | fluorescence | recombinant bactosomes | 20 µM, 10 min, pH 7.4, with: dibenzylfluorescein at Km | baseline: solvent control | remaining activity | ~35% |
| COc1ccc(F)cc1C(=O)NCc1ccc(-c2nn([C@@H](C)C(F)(F)F)c(N)c2C(N)=O)cc1 | CYP3A4 | – | human, both sexes, plasma | oral, 200 mg, single dose, with: rifampin | – | Tmax | 2.25 h |
| COc1c(O)c(C)cc2c1C(=O)c1c(ccc(O)c1O)C2=O | HepaRG co-cultured with HK-2 | MTT | – | 66.67 µM, 24 h | baseline: untreated control | cell viability | 92 ± 11.1% |
| Cc1oc2ccccc2c1Cc1cc(I)c(OCC(=O)O)c(I)c1 | Voltage-gated inwardly rectifying potassium channel KCNH2 (KCNH2, Homo sapiens, UniProt Q12809) | potassium current, whole-cell patch clamp | HEK293 expressing hERG1 | 10 µM, envelope-of-tails at -20 mV, 10 mM K+ | baseline: control | activation rate acceleration | 3.8 fold |
| Cc1cnc(C(=O)N[C@H]2CCCCC/C=C\[C@@H]3C[C@@]3(C(=O)NS(=O)(=O)C3CC3)NC(=O)[C@@H]3C[C@@H](Oc4nc5ccccc5c5ccccc45)CN3C2=O)cn1 | CYP3A7 | time-dependent inhibitor, 16α-hydroxylation of DHEA-S | recombinant bactosomes | preincubation, with NADPH, 0 min, pH 7.4, with: DHEA-S 50 µM | – | kinact | 0.000159 s⁻¹ |
| COc1cccc(-c2ccc(NC(=O)C3=C(C(=O)O)CCC3)c(F)c2)c1 | COS-7 | WST-8 | – | 10 µM, 24 h, 0.1% DMSO, unit not given | baseline: vehicle control | metabolic activity | 0.68 ± 0.19 |
| CC[C@H](C)[C@H](NC(=O)[C@H](CO)NC(=O)[C@H](Cc1ccc(O)cc1)NC(=O)[C@H](CC(=O)O)NC(=O)[C@H](CO)NC(=O)[C@@H](NC(=O)[C@H](Cc1ccccc1)NC(=O)[C@@H](NC(=O)CNC(=O)[C@H](CCC(=O)O)NC(=O)[C@H](C)NC(=O)[C@H](Cc1ccc(O)cc1)NCC(F)(F)F)[C@@H](C)O)[C@@H](C)CC)C(=O)N[C@@H](C)C(=O)N[C@@H](CCSC)C(=O)N[C@@H](CC(=O)O)C(=O)N[C@@H](CCCCN)C(=O)N[C@H](C(=O)N[C@@H](Cc1c[nH]cn1)C(=O)N[C@@H](CCC(N)=O)C(=O)N[C@@H](CCCCNC(=O)COCCOCCNC(=O)COCCOCCNC(=O)CC[C@H](NC(=O)CCCCCCCCCCCCCCCCC(=O)O)C(=O)O)C(=O)N[C@@H](CC(=O)O)C(=O)N[C@@H](Cc1ccccc1)C(=O)N[C@H](C(=O)N[C@@H](CC(N)=O)C(=O)N[C@@H](Cc1c[nH]c2ccccc12)C(=O)N[C@@H](CC(C)C)C(=O)N[C@@H](CC(C)C)C(=O)N[C@@H](C)C(=O)N[C@@H](CCC(N)=O)C(=O)N[C@@H](CCCCN)C(=O)NCC(=O)N[C@@H](CCCCN)C(=O)N[C@@H](CCCCN)C(=O)N[C@@H](CC(N)=O)C(=O)N[C@@H](CC(=O)O)C(=O)N[C@@H](Cc1c[nH]c2ccccc12)C(=O)N[C@@H](CCCCN)C(=O)N[C@@H](Cc1c[nH]cn1)C(=O)N[C@@H](CC(N)=O)C(=O)N[C@H](C(=O)N[C@H](C(=O)N[C@@H](CCC(N)=O)C(=O)O)[C@@H](C)O)[C@@H](C)CC)C(C)C)[C@@H](C)CC | Trypsin | LC-MS, measured: fragment 1-30 | – | 18 h, pH 8.0, 37 °C, with: trypsin 2.5 mg/mL | – | fragment formed | 4% |
| CC1(C)CCC2(CC1)N[C@@H](C(=O)N[C@@H]1CC[C@@H](C(N)=O)OC1)[C@H](c1ccnc(Cl)c1F)[C@]21C(=O)Nc2cc(Cl)ccc21 | ATP-dependent translocase ABCB1 (ABCB1, Homo sapiens, UniProt P08183) | – | Caco-2 monolayers | 3 µM, 120 min, no inhibitor | – | Papp B to A | 17.5 ×10⁻⁶ cm/s |
| COC(=O)c1cn(C)c2ccc(-c3cccnc3)cc12 | COS-7 | – | – | 30 µM, 24 h, 0.1% DMSO, unit not given | baseline: vehicle control | apoptotic cells | 1.16 ± 0.46 |
| CC[C@H](C)[C@H](NC(=O)[C@H](CO)NC(=O)[C@H](Cc1ccc(O)cc1)NC(=O)[C@H](CC(=O)O)NC(=O)[C@H](CO)NC(=O)[C@@H](NC(=O)[C@H](Cc1ccccc1)NC(=O)[C@@H](NC(=O)CNC(=O)[C@H](CCC(=O)O)NC(=O)[C@H](C)NC(=O)[C@@H](N)Cc1ccc(O)cc1)[C@@H](C)O)[C@@H](C)CC)C(=O)N[C@@H](C)C(=O)N[C@@H](CCSC)C(=O)N[C@@H](CC(=O)O)C(=O)N[C@@H](CCCCN)C(=O)N[C@H](C(=O)N[C@@H](Cc1c[nH]cn1)C(=O)N[C@@H](CCC(N)=O)C(=O)N[C@@H](CCC(N)=O)C(=O)N[C@@H](CC(=O)O)C(=O)N[C@@H](Cc1ccccc1)C(=O)N[C@H](C(=O)N[C@@H](CC(N)=O)C(=O)N[C@@H](Cc1c[nH]c2ccccc12)C(=O)N[C@@H](CC(C)C)C(=O)N[C@@H](CC(C)C)C(=O)N[C@@H](C)C(=O)N[C@@H](CCC(N)=O)C(=O)N[C@@H](CCCCN)C(=O)NCC(=O)N[C@@H](CCCCN)C(=O)N[C@@H](CCCCN)C(=O)N[C@@H](CC(N)=O)C(=O)N[C@@H](CC(=O)O)C(=O)N[C@@H](Cc1c[nH]c2ccccc12)C(=O)N[C@@H](CCCCN)C(=O)N[C@@H](Cc1c[nH]cn1)C(=O)N[C@@H](CC(N)=O)C(=O)N[C@H](C(=O)N[C@H](C(=O)N[C@@H](CCC(N)=O)C(=O)O)[C@@H](C)O)[C@@H](C)CC)C(C)C)[C@@H](C)CC | Trypsin | LC-MS, measured: fragment 1-32 | – | 18 h, pH 8.0, 37 °C, with: trypsin 2.5 mg/mL | – | fragment formed | 36% |
| COc1ccc(Cl)cc1C(=O)NCCc1ccc(S(=O)(=O)NC(=O)NC2CCCCC2)cc1 | P-gp and Bcrp | – | Sprague-Dawley rats, brain | intravenous infusion, 0.05 mg/kg/h, 4 h, with: elacridar 0.009 mg/kg/h | baseline: Kp without over with elacridar | efflux ratio | 1.4 |
| CC(C)C[C@H](NC(=O)CNC(=O)[C@H](C)NC(=O)[C@H](CC(C)C)NC(=O)[C@H](CC(N)=O)NC(=O)[C@H](Cc1c[nH]c2ccccc12)NC(=O)[C@@H](NC(=O)[C@H](Cc1ccc(O)cc1)NC(=O)[C@H](Cc1ccc(O)cc1)NC(=O)[C@H](CO)NC(=O)[C@H](CCCNC(=N)N)NC(=O)[C@H](Cc1c[nH]cn1)NC(=O)[C@@H](N)Cc1c[nH]c2ccccc12)[C@@H](C)O)C(=O)N[C@H](C(=O)NCC(=O)N[C@@H](CCCCN)C(=O)O)C(C)C | MMP-2 human recombinant | UPLC-Q-TOF MS | – | 2 h, pH 7.5, 37 °C, with: MMP-2 5 ng/µL | – | cleaved fraction | 87.7% |
| Cc1cc(Nc2ncnc3ccc(NC4=NC(C)(CO)CO4)cc23)ccc1Oc1ccn2ncnc2c1 (centres unmarked) | CYP3A4 | – | human, plasma | tucatinib, day 6, with: itraconazole | – | Cmax (geometric mean) | 125 ng/mL |
| CC[C@H]1[C@@H](O)[C@@H]2[C@H](CC[C@]3(C)[C@@H]([C@H](C)CCNC(=O)NS(=O)(=O)c4ccc(C(C)(C)C)cc4)CC[C@@H]23)[C@@]2(C)CC[C@@H](O)C[C@@H]12 | CYP3A4 | – | human, plasma | dose not given, mean, with: fluconazole | – | AUC(0-t) | 1600 ng·h/mL |
| C=CC(=O)N1C[C@H](Nc2ncnc3[nH]ccc23)CC[C@@H]1C | CYP3A | substrate | human, plasma | oral, 30 mg single dose, cpd alone | – | Cmax | 153 ng/mL |
| CCCCC1=NC2(CCCC2)C(=O)N1Cc1ccc(-c2ccccc2S(=O)(=O)Nc2noc(C)c2C)c(COCC)c1 | CYP2C9 | enzyme induction, inducer | human | – | – | EC50 | 2250 nM |
| CN(C)CCCN1c2ccccc2CCc2ccccc21 | UDP-glucuronosyltransferase 1A4 (UGT1A4, Homo sapiens, UniProt P22310) | glucuronidation, inhibitor, LC-MS | recombinant human supersomes | concentration not given, 180 min, pH 7.4, with: UGT1A4-specific substrate 50 µM | baseline: DMSO | inhibition | ~20% |
| CN1C[C@@H]2C[C@H]1CN2c1cc2c(cc1F)c(=O)c(C(=O)O)cn2C1CC1 | ABCG2 (sheep) | apical-to-basolateral transport, transepithelial transport | MDCK-II transduced with ovine ABCG2, HBSS with HEPES | 10 µM, 4 h | – | percent transported | 5.06 ± 1.84% |
| COc1ccc2c(O[C@@H]3C[C@H]4C(=O)N[C@]5(C(=O)NS(=O)(=O)C6CC6)C[C@H]5/C=C\CCCCN(C)C(=O)[C@@H]4C3)cc(-c3nc(C(C)C)cs3)nc2c1C | CYP3A7 | fluorescence | recombinant bactosomes | 20 µM, 10 min, pH 7.4, with: dibenzylfluorescein at Km | baseline: solvent control | remaining activity | ~35% |
| O=C(c1ccc(C(=O)N2CCC(N3CCCC3)CC2)c(Nc2ccccc2)c1)N1CCC(N2CCCC2)CC1 | Lethal(3)malignant brain tumor-like protein 3, MBT domains (Homo sapiens, UniProt Q96JM7) | FRAP | human cells | 0.5 µM | – | FRAP recovery half-time | 3.4 s |

Repeated from above:
| Compound | target or system | test | system | conditions | scale | quantity | result |
| --- | --- | --- | --- | --- | --- | --- | --- |
| Cc1cc(Nc2ncnc3ccc(NC4=NC(C)(CO)CO4)cc23)ccc1Oc1ccn2ncnc2c1 (centres unmarked) | CYP3A4 | – | human, plasma | tucatinib, day 6, with: itraconazole | – | Cmax (geometric mean) | 125 ng/mL |
| CC[C@H]1[C@@H](O)[C@@H]2[C@H](CC[C@]3(C)[C@@H]([C@H](C)CCNC(=O)NS(=O)(=O)c4ccc(C(C)(C)C)cc4)CC[C@@H]23)[C@@]2(C)CC[C@@H](O)C[C@@H]12 | CYP3A4 | – | human, plasma | dose not given, mean, with: fluconazole | – | AUC(0-t) | 1600 ng·h/mL |
| C=CC(=O)N1C[C@H](Nc2ncnc3[nH]ccc23)CC[C@@H]1C | CYP3A | substrate | human, plasma | oral, 30 mg single dose, cpd alone | – | Cmax | 153 ng/mL |
